Measured values of several laboratories.
Each numbered part is a random draw from the data of one study; scales do not carry over between parts. Several values in a cell are separate wells, animals, samples, runs or records.

Study 1
Target: RING finger protein unkempt homolog, zinc fingers 1-6, SBP tag (UNK, Homo sapiens, UniProt Q9C0B0, residues 30-357)
Chain of UniProt Q9C0B0 (30-357, looked up): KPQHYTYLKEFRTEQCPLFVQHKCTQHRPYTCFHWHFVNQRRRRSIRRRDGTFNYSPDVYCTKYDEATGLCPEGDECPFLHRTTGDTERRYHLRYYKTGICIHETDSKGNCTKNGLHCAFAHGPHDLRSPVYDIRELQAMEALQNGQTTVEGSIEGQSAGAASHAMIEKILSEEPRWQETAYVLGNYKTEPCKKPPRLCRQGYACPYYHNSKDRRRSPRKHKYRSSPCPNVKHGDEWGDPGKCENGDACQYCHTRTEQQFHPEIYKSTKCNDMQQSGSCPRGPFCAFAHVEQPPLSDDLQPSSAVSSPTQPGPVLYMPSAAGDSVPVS
Method: RNA Bind-n-Seq
Molecule type: RNA
Matrix: in vitro
Concentration: 100 nM
Setting: RNA with constant flanks, vertebrate orthologous sites, ends assumed
Reference: input RNA pool
Direction: higher = stronger binding
All sequences stand within: GGGAGUUCUACAGUCCGACGAUC … CAACAGAGGAUUGAGCAUCA
Oligonucleotide	bound/input enrichment
UUGUAUUGAUCAGGUCUGUAAAUGUGUACUAAAAAAAUCAGAGUUUAUUUAUAAACAGAUUAGUAUAUUAAAAAAAAAGGUUUUCUUCAUUGAUGUAGUGGUAUGCAUUCAAUAAACUUG	0.294 ratio
CUCUAUGGGCCUCGCAGAGUUGAAAUAAUGGAAGAGGAAAGUGAACAGUAAUCUUCAUUUUAGUAUUUAUGCUUAGAUGUGAAAAUAAAUGUUAUUUGUUGAUCAUUUCUAUAAUCCAGA	0.477 ratio
CCCAAAGGCCAAAUCCCCUCCUCCCUUCUACUGCUUCUACCAACUGGAAGCACAGAAAACUAGAAUUUCAUUUAUUUUGUUUUUAAAAAUAUACGUUGAUUUCUUGUAACAUCCAAUAGG	0.485 ratio
AAUUUUCUUAUUUUAGGUAUCAUUGCCCAAUGCCUAAGAUCUUUUAUGUUCAGCUGACUGUAGGAAAUAAUGAAUUUUUUGGAGAAGGAAAGACCCGACAAGCUGCUAGACACAAUGCUG	1.21 ratio
UUCAUAAUCACGCUAAUUGUAAUCUGGAGACGUGUAACAUUGUGUAGCCUUUUGUAUAAAUAGACAGAUAGAAAUGGUCCGAUUAGUUUCCUUUUUAAUAUGCUUAAAAUAAGCAGGUGG	1.8 ratio
CUGUAAACCUCUGUUUAUGUGCAAGUGUGUGUGCGGGCGUGUGGGUGUGUGUGUGGGUGUGUGUUUGGUUCUUGCACAAAAUAAUGUACUUUAUGUGUUUGCGUACAAUGGGACCGAUUU	0.449 ratio
UAUGAUUAUGAAAUUCUAACAGAUUUUUAAUGUUUAAUUUCCCCUGACAUAUAAAGACCUUUUUUUUUUCCAGGCAGAUAAUUCAGAGUGUGUGCACAUGUUACAAAAGAUGACUACCAU	0.397 ratio
CACAUCCGGUGAUAUUUGGCCUGGCCUUUCGGCUUAUGAUAAUAGUCCCAGAUCACCCCAUAGUCCUUCACCUAUUGCUACACCACCUAGUCAGAGUUCAUCUUGCUCUGAUGCUCCCAU	0.792 ratio

Study 2
Target: TAR DNA-binding protein 43, full length, His tag (TARDBP, Homo sapiens, UniProt Q13148, residues 1-414)
Method: RNA Bind-n-Seq
Molecule type: RNA
Matrix: in vitro
Concentration: 20 nM
Setting: 6-mer, flanks averaged, single round
With: 150 mM KCl
Reference: input library
Direction: higher = stronger binding
Oligonucleotide	6-mer enrichment (R)
CUUGGU	0.753
CUAGGA	0.821
CCACAU	0.629
AGCGCC	0.806
CUCCCC	0.675
AGGACG	1.58
AAAAUG	0.684
CCUUUA	0.601

Single results of other studies
ABL1: Tyrosine-protein kinase ABL1 (ABL1, Homo sapiens, UniProt P00519)
Chain of UniProt P00519 (whole entry, looked up): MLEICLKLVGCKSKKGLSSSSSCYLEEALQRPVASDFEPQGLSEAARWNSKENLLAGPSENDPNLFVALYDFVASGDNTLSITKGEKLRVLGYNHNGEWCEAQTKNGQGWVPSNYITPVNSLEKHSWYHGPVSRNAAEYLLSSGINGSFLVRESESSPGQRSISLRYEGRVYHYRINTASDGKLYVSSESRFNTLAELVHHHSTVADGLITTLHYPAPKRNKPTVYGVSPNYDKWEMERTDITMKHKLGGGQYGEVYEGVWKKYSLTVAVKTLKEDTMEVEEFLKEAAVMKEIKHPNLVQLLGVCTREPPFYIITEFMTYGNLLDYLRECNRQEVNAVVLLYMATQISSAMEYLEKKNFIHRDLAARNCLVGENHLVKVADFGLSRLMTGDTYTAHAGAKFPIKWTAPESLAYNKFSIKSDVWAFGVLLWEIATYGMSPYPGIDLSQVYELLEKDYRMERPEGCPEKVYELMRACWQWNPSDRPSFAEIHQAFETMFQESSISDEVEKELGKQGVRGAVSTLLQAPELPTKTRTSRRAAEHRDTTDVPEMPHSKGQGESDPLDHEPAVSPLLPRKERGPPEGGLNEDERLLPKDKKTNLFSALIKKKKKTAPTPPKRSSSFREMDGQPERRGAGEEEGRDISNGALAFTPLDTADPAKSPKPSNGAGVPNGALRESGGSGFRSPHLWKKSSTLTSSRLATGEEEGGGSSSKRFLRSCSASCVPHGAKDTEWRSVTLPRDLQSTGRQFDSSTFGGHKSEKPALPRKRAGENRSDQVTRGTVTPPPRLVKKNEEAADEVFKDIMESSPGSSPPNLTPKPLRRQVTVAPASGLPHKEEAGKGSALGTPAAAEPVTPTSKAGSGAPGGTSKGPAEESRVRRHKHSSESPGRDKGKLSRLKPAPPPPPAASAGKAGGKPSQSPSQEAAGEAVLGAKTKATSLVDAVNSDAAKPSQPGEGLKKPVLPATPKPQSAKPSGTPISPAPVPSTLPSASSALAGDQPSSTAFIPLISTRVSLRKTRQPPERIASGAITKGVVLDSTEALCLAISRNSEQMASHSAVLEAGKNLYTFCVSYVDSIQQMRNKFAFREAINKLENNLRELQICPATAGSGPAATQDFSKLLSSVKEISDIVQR
SMILES	target or system	assay	system	setting	scale	measurement	value
Nc1cccc(-c2cc3c(Oc4cccc(O)c4)ncnc3[nH]2)c1	ABL1	enzyme activity, inhibitor	–	0.5 µM	reference: control	remaining activity	5.5%
Cc1c(NC(=O)c2cc(C(N)=O)nc3cc(F)ccc23)c(C(F)(F)F)nn1Cc1ccc(C#N)cc1	normal organoid sample H	CellTiter-Glo	human	1 µM, 4 days	reference: DMSO	viability	10.1% and 9.3%
c1ccc(-c2[nH]ncc2-c2ccnc3ccccc23)nc1	ABL1	enzyme activity, inhibitor	–	0.5 µM	reference: control	remaining activity	77.1%

Repeated from above (study 2):
Oligonucleotide	6-mer enrichment (R)
CUUGGU	0.753
CUAGGA	0.821
CCACAU	0.629
